Measurements collected from several papers.
Every numbered part comes from another study and shows a few of its results, in no order. Substitutions count along the parent as printed.

Block 1 — method: protein binding microarray; form: double-stranded DNA, one strand shown; sample: in vitro; tested at: not given; baseline: not given; direction: higher = stronger binding
Target: Histone acetyltransferase KAT6A, both winged helices, GST fusion (KAT6A, Homo sapiens, UniProt Q92794, residues 1-181)
Notes: 8-mer, flanks averaged, mean of 2 arrays, mostly near background
Target sequence (chain): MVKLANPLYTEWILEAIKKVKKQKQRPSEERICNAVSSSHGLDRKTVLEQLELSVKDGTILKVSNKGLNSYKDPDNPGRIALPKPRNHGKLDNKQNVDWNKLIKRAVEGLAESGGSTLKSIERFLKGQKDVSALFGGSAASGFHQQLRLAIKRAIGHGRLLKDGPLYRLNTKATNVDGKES
Sequence | E-score
AGATGGAG | -0.137
CAGGACAC | -0.114
AAAATGCG | 0.258
ATCCTTAG | -0.146
GCATCCGC | 0.115
AGCTACTC | -0.125
GGGGCCTA | -0.114
AGGGACTC | -0.0722
ACCACCTA | -0.0865
AGACAACG | 0.00294
AGGTTGTC | -0.148
ACAACAGT | -0.0793
GCCGTTGA | 0.206
CCTTGACA | 0.0587
GCTTACGA | -0.00509
ACTCAGGC | -0.0343
TAAGGTAA | -0.091
ACTTCCAC | -0.101
ACGTCGCC | -0.0132
AAACGAAC | 0.0475
AACCCATA | -0.235
TCGCCTAA | 0.161
CAACCATG | -0.00705
CGCCCGAC | 0.334
GCCTAAAC | -0.0531

Block 2 — method: protein-binding microarray; form: double-stranded DNA, one strand shown; sample: in vitro; tested at: 250 nM; notes: 60-bp whole probe; with: salmon DNA 0.4 mg/ml; baseline: random background probes; direction: higher = stronger binding; all sequences stand within: GCCTAGCAC … GTCTTGATTCGCTTGACGCTGCTG
Target: Interferon regulatory factor 5, full length, phosphomimetic (IRF5, Homo sapiens, UniProt Q13568-2, residues 1-514, K96S/S451D/S453D/S456D/S462D)
Sequence | log fluorescence [z-score]
GTAGGTATCGACTTTCGGTTAGTGCTA | 10.1
TTAGATTTCGGGCTTCGATTAGTGCTA | 3.27
TCACCTCCCTGTTTCCAACTGTGCTAG | 0.0615
TGAGGTATCGGGACTGGGTTAGTGCTA | 0.663
TTAGGTCTCGGTTTCGGTGAGTGCTAG | 6.37
CTTTACATGGGTTTTCAGCTGGTGCTA | 0.361
TTAGGTTTCCTTTTCATTTAGTGCTAG | 2.53
GACGGACTGCTACTGCTGCCGTGCTAG | -0.838
TTAGGTTTCGACTATCGGCTAGTGCTA | 8.43
GACGGTTTCGACGATCGGGACGTGCTA | 4.95
CTAGGTTTCGACTTTCGGTTAGTGCTA | 10.3
TTTGGTTTCGGTTTCGGTTAGTGCTAG | 12.3
GACGGACTGGACTATCGGGCCGTGCTA | 0.464
TTAGATATCGGGAATGGATTAGTGCTA | 1.6
TCAGGTATTTTTTTGTAACTGTGCTAG | 0.321
GACGGTATCGGGTTTCGGCACGTGCTA | 4.81
TTAGATATGAGTCTCGATTAGTGCTAG | 0.694
TTATCAATCATTTTAGTTTTGTGCTAG | 1.85
GGCGGTATCGACTTTCGGGACGTGCTA | 6.26

Block 3 — target: CCNE2, cyclin fold, Cln2 fusion (human); method: yeast growth competition, sequencing; sample: yeast; notes: strong parent motif; baseline: not given; direction: higher = stronger binding
Starting sequence: INSM1 docking peptide (human); PKAIRKLHFEDEV; partner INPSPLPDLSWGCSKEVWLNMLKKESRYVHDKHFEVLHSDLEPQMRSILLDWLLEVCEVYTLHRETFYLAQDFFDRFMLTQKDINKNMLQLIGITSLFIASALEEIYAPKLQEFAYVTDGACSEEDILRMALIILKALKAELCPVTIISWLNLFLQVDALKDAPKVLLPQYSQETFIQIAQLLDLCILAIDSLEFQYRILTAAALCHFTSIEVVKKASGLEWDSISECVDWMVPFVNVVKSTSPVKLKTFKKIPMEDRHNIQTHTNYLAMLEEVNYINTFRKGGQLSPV
Change | normalised enrichment score
D11W | 1.5
L7A | -0.0137
D11V | 1.33
R5T | 0.00583
L7Q | 0.151
I4H | 0.446
R5S | 0.148
F9G | 0.316
L7S | 0.214
K2F | 1.02
F9D | 0.207
F9S | 0.072
D11G | 1.32
K6Y | 0.683
A3Q | 0.627
A3H | 3.13
D11P | 1.46
A3S | 0.327
R5G | -0.15
D11I | 1.65
I4V | 2.67
E10T | 1.36
L7E | -0.0543

Block 4 — method: RNA Bind-n-Seq; form: RNA; sample: in vitro; tested at: 100 nM; baseline: input RNA pool; direction: higher = stronger binding
Target: RING finger protein unkempt homolog, zinc fingers 1-6, SBP tag (UNK, Homo sapiens, UniProt Q9C0B0, residues 30-357)
Sequence of UniProt Q9C0B0 (30-357, looked up): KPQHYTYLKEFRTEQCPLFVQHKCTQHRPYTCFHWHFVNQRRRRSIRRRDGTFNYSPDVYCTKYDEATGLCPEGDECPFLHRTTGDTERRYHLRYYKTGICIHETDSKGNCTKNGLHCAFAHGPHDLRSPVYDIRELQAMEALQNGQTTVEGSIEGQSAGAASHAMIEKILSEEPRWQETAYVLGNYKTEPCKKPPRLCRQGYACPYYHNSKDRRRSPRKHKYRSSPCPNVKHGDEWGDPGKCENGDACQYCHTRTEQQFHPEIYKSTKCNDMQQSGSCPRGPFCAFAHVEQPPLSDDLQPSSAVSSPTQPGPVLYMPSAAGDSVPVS
Notes: RNA with constant flanks, vertebrate orthologous sites, ends assumed
All sequences stand within: GGGAGUUCUACAGUCCGACGAUC … CAACAGAGGAUUGAGCAUCA
Sequence | bound/input enrichment [ratio]
UGUCUUGGUUUCGGGUAGAGGGGAGGGAGGGGUAGGACAGUGUGGAAUCUCUAGGGUGUAUGGGUAGAUAGGCUACACGGUUAGUUCUAAUUGGGCCUUUAUGUUAAAAACCUCUAGGGG | 0.619
ACCUUUUGUAGGCCAAAUACCUUCCUUCCACUGCUUCUGCCAACUGGAAGCACAGAAAACUAGAAUUUCAUUUAUUUUGUUUAAAAAAAAAAUUGAUUUCUUGUAACAUCCAAUAGGAAU | 0.537
CCUACAAUAAUGAAAACCUACAGGAAUUUUUUUAUUUUUCAUUAUCCCCUUAGGCAUAUUUAGGCUUUUCCCCUAGGCAGAUCAUUCUGAGUGUGCGAGUGUGUGUGCACAUGUUACAAA | 0.941
GUGACUUUGGGCGUCCGCAUAGUCUUGGUGCACCCUUAGUCCAGGUCUUGUCCCGCAGGUUUAUUUUUCUUUCCCUGUAGACUAAAGGCCGCUGCCGCAAACAUGCUUCGCCAGAUCCUC | 0.269
AAAUUCAUCUCUUUUUAUAUGUCCAAAAAUGGGUUUAAAUUUUUAAACAGUUGUUUUAAUUAGCUCUGCUGUCAUGAAGUAUUAUUAUAGUUCACCACAAACGUAUCUGUCUGAAUUACU | 0.681
AAAUUUAUUUCAUGCCCUGGACUCCCUACCGCACUGAUACUUUAAUAGAGUAUGCUUCUUUAGAAGAUUUCCAAAACAGUCGCCAAACAACAACAUAUAAACUUCCAAAUCGAGUAGAUG | 0.857
AAAUGCGAUGGUUGAAGGCUCUGAGCUCAAAAAGAUUCGAUCCAAUUCCAGAGUGUAUCACCGAUAUUUUCUUUUAGAUGCAGAUAUGCAGUCCCUACGCUGGGAACCUUCAAAAAAGGA | 0.318
GGGUGACUUUGGGCGCCCGCAAAAACAUCGUGCAGAGUCCUAGCUCCUGGGUCUGCCAAAUUUGUCUUGUCUUUCCGGACCCGAGGCCAAAGCCGCAAACAUGCUGCGCCAGAUCCUCGG | 0.133

A few entries again (block 1):
Sequence | E-score
AAAATGCG | 0.258
ATCCTTAG | -0.146
GCATCCGC | 0.115
AGCTACTC | -0.125
GGGGCCTA | -0.114
AGGGACTC | -0.0722
ACCACCTA | -0.0865
AGACAACG | 0.00294
AGGTTGTC | -0.148
